Published values of several laboratories.
Protocols differ between the studies behind these lines. “And” joins repeats or separate records; there may be more than shown. ± gives the spread as reported.

CC(C)[C@H](C(=O)Nc1ccc(C(=O)NO)cc1)c1ccccc1
tumour volume (volumetric MRI; human, right meningioma; dose not given, day 133): 9.2 cm3

OC(CCN1CCCCC1)(c1ccccc1)C1CC2C=CC1C2 (centres unmarked)
change, theta power, EEG O1-Pz (resting-state EEG; healthy elderly humans; oral, 4 mg, eyes open, LS mean; baseline: baseline): 4.5%

COc1c(C)cnc(Cn2cc(C#CCCOP(=O)(O)O)c3c(Cl)nc(N)nc32)c1C
stable disease duration (RECIST; patients, advanced solid tumours; dose not given, prolonged, range): 6 to 19 months

Cc1ccc(NC(=O)c2ccnc(C(F)(F)F)c2)cc1-c1cc(OCCO)nc(N2CCOCC2)c1
stable disease (MAPK-altered advanced solid tumour patients; dose not given, single-agent dose escalation): 34.5%

CO[C@H]1CC[C@H](N2C(=O)CNc3ncc(-c4ccc(C(C)(C)O)nc4)nc32)CC1
p4EBP1 change from baseline (flow cytometry; stimulated T cells, human, blood; 45 mg single dose, 1.5 h, mean; baseline: baseline): -49.8%

CN(C(=O)n1cnc(-c2ccc[n+]([O-])c2)c1)C1CCCCC1
AUC(0-t) (measured: PEA; human, plasma; 40 mg single dose): 370 ng·h/mL

O=S(=O)(Nc1nccs1)c1ccc(N=NN(O)c2ccccc2)cc1
paw edema volume (carrageenan-induced paw edema; Wistar rat; oral, 100 mg/kg, 0 h (baseline), added: carrageenan 1% subplantar; higher = more edema): 3.72 ± 0.71 a.u.

O=C(OC(C(F)(F)F)C(F)(F)F)N1CCN(Cc2cccc(Oc3ccccc3)c2)CC1
tracer distribution volume (PET; rhesus monkey, pons; intravenous, 0.1 mg/kg, pretreatment blocking, added: [18F]T-401): 2.31 mL/cm3

O=C(O)CNC(=O)Cc1ccccc1
sarcomere length (ventricular cardiomyocytes, C57BL/6 mouse; dose not given, 0.02 s): 1.72 µm

Cn1cc(Nc2nccc(-c3ccc4c(c3)CN(C3COC3)CC[C@H]4NC(=O)c3cn(C(C)(C)C)nn3)n2)cn1
pathway activation z-score (measured: Senescence Pathway; splenic B cells, mouse; in vivo, 30 mg/kg, IgD-activated B cells; baseline: vehicle, positive = activation): 3.83

O=C(O)C1=CC(=C(c2ccc(O)c(C(=O)O)c2)c2ccc(O)c(C(=O)O)c2)C=CC1=O
SCA-1 expression (flow cytometry; C57BL/6J mouse MC-38 tumour, tumour-infiltrating CD8+ T cells; peritumoral, dose not given, 2 cycles; baseline: vehicle): no effect

COc1nc(NCc2cn(-c3ccc(NC(=O)c4ccc(Br)cc4)cc3)nn2)nc(OC)n1
IC50 (cell viability, MTT; normal colonocytes, rat; 72 h): 15.7 ± 5.32 nM

Cc1noc(NS(=O)(=O)c2ccc(N=NN(C)O)cc2)c1C
paw edema volume (carrageenan-induced paw edema; Wistar rat; oral, 100 mg/kg, 2 h after carrageenan, added: carrageenan 1% subplantar; higher = more edema): 5.8 ± 0.67 a.u.

Cc1cc(F)cc2c(CCC(=O)N[C@@H]3C(=O)NC[C@H]3O)c(-c3ccc(F)cc3)[nH]c12
UACR (proteinuria, measured: urine albumin/creatinine; APOL1 G2 mice; 30 mg/kg twice daily, day 6, added: IFNγ): 5690 µg/mg

COc1ccccc1[C@H](Cn1c(=O)n(C(C)(C)C(=O)O)c(=O)c2c(C)c(-c3ncco3)sc21)OC1CCOCC1
serum adiponectin (human; 200 mg, post-treatment): 6.23 ± 1.81 µg/mL

c1ccc(-c2n[nH]cc2-c2ccnc3ccccc23)nc1
log2 fold change (kinase binding, competitor, MIB/MS competition, measured: ENV7; Candida albicans cell lysate; 10 µM; baseline: DMSO): 0.0285

CC1(C)CCC(c2ccc(Cl)cc2)=C(CN2CCN(c3ccc(C(=O)NS(=O)(=O)c4ccc(N[C@H](CCN5CCOCC5)CSc5ccccc5)c(S(=O)(=O)C(F)(F)F)c4)cc3)CC2)C1
EC50 (cell killing; canine lymph node CD21+ B cells, dog 34; 24 h): 63 nM

CC(C)NCC(O)c1ccc(O)c(O)c1 (centres unmarked)
sarcomere length (ventricular cardiomyocytes, C57BL/6 mouse; dose not given, 0.116 s): 1.7 µm

C[C@@H]1CCC[C@H](n2cnc(-c3cc(Cl)ccc3-n3cc(Cl)nn3)cc2=O)c2cc(ccn2)-c2c(cnn2C(F)F)NC1=O
concentration for aPTT prolongation (dog plasma; IC2× aPTT, STA-PTT reagent): 2400 nM

COc1ncnn2ccc(-c3cnc4nc(C)n(Cc5nnc([C@@H](C)F)o5)c4c3)c12
marrow complete response as best response (Homo sapiens, relapsed or refractory AML or MDS; dose not given, splicing factor mutation-negative): 0%

CCCN(O)N=Nc1ccc(S(=O)(=O)Nc2cc(C)on2)cc1
paw edema volume (carrageenan-induced paw edema; Wistar rat; oral, 100 mg/kg, 0 h (baseline), added: carrageenan 1% subplantar; higher = more edema): 3.61 ± 0.41 a.u.

Cc1noc(C)c1-c1cc(C(O)(c2ccccn2)c2ccccn2)c2nc(C3CC3)[nH]c2c1
maximum inhibition (measured: CCR2 expression; human, peripheral blood; 6 mg, day 1, 1604 study): 39%

N#Cc1ccn2c(-c3ccncc3)c(-c3ccc(F)cc3)nc2c1
log2 fold change (kinase binding, competitor, MIB/MS competition, measured: TOR1; Candida albicans cell lysate; 10 µM; baseline: DMSO): 0.215

Cc1cc(NS(=O)(=O)c2ccc(N=NN(O)c3ccccc3)cc2)no1
paw edema volume (carrageenan-induced paw edema; Wistar rat; oral, 100 mg/kg, 3 h after carrageenan, added: carrageenan 1% subplantar; higher = more edema): 4.41 ± 0.93 a.u.

COCCOC(=O)C1=C(C)NC(C)=C(C(=O)OC(C)C)C1c1cccc([N+](=O)[O-])c1 (centres unmarked)
resting membrane potential (whole-cell current clamp; DRG neurons, naive rat; dose not given): -66.1 mV and -79 mV and -64.7 mV and -71.7 mV and -63.5 mV and -68.7 mV

COc1cc2cc(-c3ccc(CC(=O)Nc4cc(C(C)(C)C(F)(F)F)no4)cn3)cnc2cc1OC
best overall response PD (RECIST v1.1; human RET-altered solid tumours; 11 50 mg tablets, phase I): 11%

COc1cc(/C=C/C(=O)N2CCC=CC2=O)cc(OC)c1OC
mRNA level (qRT-PCR, measured: Survivin; nude mouse, 468 xenograft, tumour; 15 mg/kg, 21 days, unit not given; baseline: β-actin, vehicle): 0.552

NCC(=O)Nc1cncc(-c2nn3c(=O)cc(N4CCNCC4)nc3s2)c1
inhibition of platelet aggregation (ADP-induced platelet aggregation, light transmission aggregometry; stable CAD patients on aspirin; subcutaneous, 0.04 mg/kg, 24 h post-dose, added: ADP 20 µM): 0%

COc1cc(-c2ccccc2)ncc1C(=O)Nc1ccc2c(=O)[nH]c(-c3ccc(C(C)(C)O)cc3)nc2c1
normalized enrichment score (RNA-seq GSEA, measured: FALLER_ENTEROCYTE_MOUSE; organoids, small intestinal, Apc Q1405X, mouse; dose not given, 3 days, wild-type organoids; baseline: DMSO, direction not given): -1

CC#Cc1cncc(-c2ccc3c(c2)[C@@]2(N=C(C)C(N)=N2)[C@]2(CC[C@H](OC)CC2)C3)c1
reduction (measured: Aβ40; beagle dogs, plasma; oral, 0.48, 3.4 or 24 µmol/kg daily, 2 weeks, 4 h post-dose): > 50%

Cc1cccc(N(O)N=Nc2ccc(S(=O)(=O)Nc3nccs3)cc2)c1
paw edema volume (carrageenan-induced paw edema; Wistar rat; oral, 100 mg/kg, 2 h after carrageenan, added: carrageenan 1% subplantar; higher = more edema): 5.81 ± 0.87 a.u.

CC(C)C[C@H](NC(=O)[C@@H](Cc1c[nH]c2ccccc12)NC(=O)[C@H](Cc1ccc(O)cc1)NC(=O)[C@H](CO)NC(=O)[C@H](Cc1c[nH]c2ccccc12)NC(=O)[C@H](Cc1c[nH]cn1)NC(=O)[C@@H]1CCC(=O)N1)C(=O)N[C@@H](CCCNC(=N)N)C(=O)N1CCC[C@H]1C(=O)NCC(N)=O
boys at genital stage (Chinese boys, central precocious puberty; intramuscular, 22.5 mg day 1, month 6, month 6, unchanged Tanner stage II; baseline: screening): 50%

CSCCNc1nc(SCCC(F)(F)F)nc2c1ncn2[C@@H]1O[C@H](COP(=O)(O)OP(=O)(O)C(Cl)(Cl)P(=O)(O)O)[C@@H](O)[C@H]1O
patients with high reactivity (ADP-induced platelet aggregation, Multiplate, AUC >46 U; human patients, whole blood; dose not given, 1 h): 11.4%

Cc1ccc(N(O)N=Nc2ccc(S(=O)(=O)Nc3cc(C)on3)cc2)cc1
paw edema volume (carrageenan-induced paw edema; Wistar rat; oral, 100 mg/kg, 2 h after carrageenan, added: carrageenan 1% subplantar; higher = more edema): 5.22 ± 0.36 a.u.

C[C@@H](NC(=O)N1C(=O)[C@H](Cc2ccnc(N)c2)[C@H]1C(=O)O)C1CCCCC1
ACT Emax (human; iv infusion, 1.5 mg/kg/h, 24 h, unit not given; baseline: baseline): 1.08

CCCCC1(CCCC)CN(c2ccccc2)c2cc(SC)c(OCC(=O)N[C@@H](C(=O)NCC(=O)O)c3ccccc3)cc2S(=O)(=O)C1
plasma C4 (measured: 7α-hydroxy-4-cholesten-3-one; human, plasma; 15 mg once daily, day 9): 79.5 ng/mL

Cc1n[nH]c2ccc(-c3cc(OC[C@@H](N)Cc4ccccc4)cnc3-c3ccoc3)cc12
log2 fold change (kinase binding, competitor, MIB/MS competition, measured: SCH9; Candida albicans cell lysate; 100 nM; baseline: DMSO): -0.2

C[C@H]1C[C@H]2CSC(N)=N[C@@]2(c2nc(NC(=O)c3ccc(OC(F)F)cn3)cs2)CO1
percent change from baseline (measured: total Aβ; healthy adults, plasma; 540 mg single dose, 6 h post-dose; baseline: placebo): -57.6%
